Assay results collected from several papers.
Numbered parts are unrelated; each lists some results of a single study. Substitutions count along the parent as printed.

Set 1 — method: universal PBM; form: double-stranded DNA, one strand shown; sample: in vitro; concentration: not given; direction: higher = stronger binding
Target: Sal-like protein 4, full length isoform B (SALL4, Homo sapiens, UniProt Q9UJQ4-2, residues 1-616)
Notes: 8-mer, flanks averaged, mean of replicates
Strand	E-score
TCAGGGGA	-0.0824
AACCTAAA	0.244
AAAACACA	0.171
CGACTACA	0.0876
AATGGTTA	0.198
CTGGTAGA	-0.102
ACCGCTCG	-0.256
CGAACTTA	-0.0717
AGGGCGTA	-0.043
CTTTCTTA	0.0489
ATCGTTGA	0.00724
ATAGCAGC	-0.0858
AATCGAAT	0.143
CCTGCTAA	-0.131
ATCCTCCC	-0.285
AAGTACGC	-0.00826
AGCGATCA	-0.167
CGAAAACG	-0.15
ACCACTCC	-0.116
CAGTGCTC	-0.0998
AGCCTAGA	-0.0669
ACCAGGTA	-0.134
GAGAAATA	0.226
ATCGGATC	-0.0673
GTTGGTCA	0.0533

Set 2 — method: protein binding microarray; form: double-stranded DNA, one strand shown; sample: in vitro; concentration: not given; baseline: not given; direction: higher = stronger binding
Target: Histone acetyltransferase KAT6A, winged helix 2, GST fusion (KAT6A, Homo sapiens, UniProt Q92794, residues 85-181)
Notes: 8-mer, flanks averaged, mean of 2 arrays, mostly near background
Residues (chain): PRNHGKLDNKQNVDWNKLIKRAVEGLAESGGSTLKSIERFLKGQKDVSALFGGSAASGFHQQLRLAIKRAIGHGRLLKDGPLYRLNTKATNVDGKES
Strand	E-score
GGCACATA	0.103
GCCTACGA	0.0135
AGATTTAT	0.0667
AGTCGCCC	-0.0159
CAAATCCG	-0.018
CAGTGGCG	0.13
GACAGACA	0.0646
CTTGTCCC	0.161
CCTCAAAC	0.119
AAATAACA	-0.127
CCTTACGC	-0.0897
GTAGGTGA	-0.0689
GACCGAAC	0.205
ATGATTGC	0.1
GCGCTCAC	0.0413
CTCTCATA	-0.0794
AAATTGTG	-0.172
CCTCGCGA	0.0169
GATGGGCC	0.0313
AACATACC	-0.0828
CTAGTTCC	0.18
GTCCCTCA	0.0598
AGAATTAA	0.0389
AAGGTTCA	0.125
CTATCTCC	-0.158

Set 3 — target: CEBPE, bZIP domain (human); method: DHFR protein complementation; sample: yeast; baseline: wild-type JUN-FOS pair; direction: higher = stronger binding
Notes: single substitutions, most at no-binding floor
Starting sequence: JUN, bZIP domain (human); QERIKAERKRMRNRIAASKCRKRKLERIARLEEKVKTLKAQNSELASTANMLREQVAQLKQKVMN; partner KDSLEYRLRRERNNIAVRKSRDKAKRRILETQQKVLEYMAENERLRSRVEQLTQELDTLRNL
Variant	binding fitness [natural log]
Q55A	-1.24
L31V	-1.41
M51W	-1.18
A49E	-0.95
S43V	-1.17
I28D	-1.37
T48R	-0.807
M51L	-1.02
E33T	-1.28
E44P	-1.54
A29N	-1.25
A49C	-1.13
I28L	-0.811
Q55I	-1.47
K34L	-1.1
R30G	-1.17
V35G	-1.43
V35W	-1.32
R30C	-1.14
A40H	-1.19
E33I	-1.33
E54I	-1.21
Q55Y	-1.4

Set 4 — target: CCNB1, cyclin fold, Cln2 fusion (human); method: yeast growth competition, sequencing; sample: yeast; notes: weak parent motif; baseline: not given; direction: higher = stronger binding
Starting sequence: RB1 docking peptide (human); PKPLKKLRFDIEG
Variant	normalised enrichment score
P1S	0.11
D10E	-0.236
I11C	0.966
K2Q	0.404
P3C	2.21
E12A	0.0497
R8E	0.306
P3R	1.17
L7H	0.0838
K5D	0.188
R8K	0.266
K6S	-0.238
I11L	1.42
R8Y	0.545
K2L	0.949
K2W	0.63
P1E	0.831
I11H	0.789
D10N	0.574
K6V	0.292
P3V	0.151
K5A	0.0794
R8A	0.519
L4A	0.89

Set 5 — method: protein-binding microarray; form: double-stranded DNA, one strand shown; sample: in vitro; concentration: 250 nM; notes: 60-bp whole probe; added: salmon DNA 0.4 mg/ml; baseline: random background probes; direction: higher = stronger binding; constant ends, left off below: GCCTAGCAC … GTCTTGATTCGCTTGACGCTGCTG
Target: Interferon regulatory factor 5, full length, phosphomimetic (IRF5, Homo sapiens, UniProt Q13568-2, residues 1-514, K96S/S451D/S453D/S456D/S462D)
Strand	log fluorescence
TTAGATTTCGGCTTTCGATTAGTGCTA	8.27 z-score
GACGATGTCGGGACTGGAGACGTGCTA	-0.438 z-score
TCATCTTTCTGTCAGTTACTGTGCTAG	4.58 z-score
TTAGATTTCAGTCTCGAATAGTGCTAG	2.44 z-score
GACGATCTCAGCATCGAGACGTGCTAG	-0.224 z-score
TCAAGTTCAGTTCTCTAACTGTGCTAG	-0.139 z-score
GACGGTTTCGGACTGGGGAGGTGCTAG	4.05 z-score
GACGGACTGGACTTTCGGGCCGTGCTA	3.5 z-score
TTAGGACTGGGACTAGGTTAGTGCTAG	-0.345 z-score
TTATGTATCCTTATCCTTTAGTGCTAG	0.85 z-score
TTAGATATCGGGTTTCTATTAGTGCTA	3.48 z-score
CTTAGCTTGGGTCTGTGCCTGTGCTAG	-0.516 z-score
GACGGACTGGGTATCGGTACGTGCTAG	2.42 z-score
GACGATATCAGGTTTCGAGACGTGCTA	3.14 z-score
GGCGATTTCGGGTTTCGAGACGTGCTA	5.49 z-score
TCAGCTATACCACTCTTACTGTGCTAG	-0.129 z-score
GACGATTCCAGTTACGAGACGTGCTAG	0.0136 z-score
TCAACTTTCTTAATGCTACTGTGCTAG	1.62 z-score
TTAGGACGGGACTATCGGTTAGTGCTA	6.36 z-score
GAAGATTTCGATTACAAAAAGTGCTAG	6.17 z-score
TTAGATTCCAGTTCCGATTAGTGCTAG	1.24 z-score
GACGACTTCAGTTTCGAGACGTGCTAG	5.14 z-score

Single results of other studies
Molecule	target	assay	system	conditions	how to read	endpoint	result
PhoQ, residues 284 288 289 292 302 303 NLGVHL	PhoP, residues 12 14 15 18 19 AWHSL (Escherichia coli, UniProt P23836)	Sort-seq, item: YFP reporter	E. coli	PhoQ-PhoP variant library, added: 10 µM Mg2+	baseline: high Mg2+ state, higher = stronger signaling	fold induction	2.85

For quick reference, copied from above (set 4):
Variant	normalised enrichment score
E12A	0.0497
D10N	0.574
R8K	0.266
R8A	0.519
D10E	-0.236
L4A	0.89
